{"data": "Measured values pooled from the literature", "note": "Each numbered part is a random draw from the data of one study; scales do not carry over between parts."}
{"data": "Study 1", "target": "Leukocyte tyrosine kinase receptor (LTK, Homo sapiens, UniProt P29376)", "observed": "enzyme activity", "action": "inhibitor", "technique": "radiometric", "concentration": "0.5 µM", "sequence of UniProt P29376 (whole entry, looked up)": "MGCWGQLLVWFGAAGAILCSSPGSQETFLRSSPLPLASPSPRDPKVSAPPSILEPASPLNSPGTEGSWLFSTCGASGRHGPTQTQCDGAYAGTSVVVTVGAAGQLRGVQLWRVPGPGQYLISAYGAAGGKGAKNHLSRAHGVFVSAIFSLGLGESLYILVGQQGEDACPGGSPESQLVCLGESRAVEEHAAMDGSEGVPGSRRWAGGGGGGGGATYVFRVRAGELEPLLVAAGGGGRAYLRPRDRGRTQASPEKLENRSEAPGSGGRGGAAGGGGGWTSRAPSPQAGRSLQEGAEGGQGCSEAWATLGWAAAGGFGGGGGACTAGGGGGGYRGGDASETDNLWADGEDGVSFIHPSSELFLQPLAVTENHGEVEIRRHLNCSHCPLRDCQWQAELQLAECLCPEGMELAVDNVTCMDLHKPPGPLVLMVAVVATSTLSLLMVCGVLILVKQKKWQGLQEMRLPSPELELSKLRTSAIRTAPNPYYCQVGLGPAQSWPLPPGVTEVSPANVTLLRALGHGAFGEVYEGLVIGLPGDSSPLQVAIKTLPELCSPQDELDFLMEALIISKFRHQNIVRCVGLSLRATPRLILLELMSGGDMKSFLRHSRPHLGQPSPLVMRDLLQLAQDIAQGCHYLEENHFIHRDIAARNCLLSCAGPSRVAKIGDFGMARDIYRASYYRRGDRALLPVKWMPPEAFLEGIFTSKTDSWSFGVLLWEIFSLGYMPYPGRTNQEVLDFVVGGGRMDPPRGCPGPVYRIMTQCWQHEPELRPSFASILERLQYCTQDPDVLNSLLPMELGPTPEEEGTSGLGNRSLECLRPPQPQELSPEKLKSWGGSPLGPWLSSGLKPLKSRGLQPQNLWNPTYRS"}
{"Structure (SMILES)": "N#C/C(=C\\c1ccc(O)c(O)c1)C(=O)NCc1ccccc1", "remaining activity": "91.4%"}
{"Structure (SMILES)": "CCN(CC)CCNC(=O)c1c(C)[nH]c(/C=C2\\C(=O)Nc3ccc(Cl)cc32)c1C", "remaining activity": "11.6%"}
{"Structure (SMILES)": "O=C1C(Cl)=C(N2C(=O)CCC2=O)C(=O)c2ccccc21", "remaining activity": "100%"}
{"Structure (SMILES)": "CN([C@@H](Cc1ccc(OS(=O)(=O)c2cccc3cnccc23)cc1)C(=O)N1CCN(c2ccccc2)CC1)S(=O)(=O)c1cccc2cnccc12", "remaining activity": "102%"}
{"Structure (SMILES)": "COc1cc2c(cc1OC)-c1[nH]nc(Nc3cccc(F)c3)c1C2", "remaining activity": "93.3%"}
{"Structure (SMILES)": "Ic1cccc(CSc2nnc(-c3ccncc3)o2)c1", "remaining activity": "103%"}
{"Structure (SMILES)": "O=c1cc(-c2cccc3c2Sc2ccccc2S3)oc(N2CCOCC2)c1", "remaining activity": "94.1%"}
{"Structure (SMILES)": "CCN(CC)C(=O)c1ccc(Nc2nc(OCC3CCCCC3)c3[nH]cnc3n2)cc1", "remaining activity": "66.1%"}
{"Structure (SMILES)": "COc1cc2ncnc(Nc3ccc(O)c(Br)c3)c2cc1OC", "remaining activity": "5.44%"}
{"Structure (SMILES)": "CN(C)C[C@H]1CCn2c(c(C3=C(c4cn(C)c5ccccc45)C(=O)NC3=O)c3ccccc32)C1", "remaining activity": "101%"}
{"Structure (SMILES)": "Cn1nc2c3c(cccc31)C(=O)c1ccccc1-2", "remaining activity": "86.7%"}
{"data": "Study 2", "target": "HLA class I histocompatibility antigen, A alpha chain, allele A*80:01 (Homo sapiens, UniProt P04439)", "observed": "peptide-MHC binding", "molecule type": "peptide", "direction": "direction not given"}
{"Molecule": "DEGFHAATV", "z-score of log IC50": 0.38}
{"Molecule": "ATEDPSSGY", "z-score of log IC50": 0.38}
{"Molecule": "AELIDSFTW", "z-score of log IC50": 0.38}
{"Molecule": "AHYEEDVNL", "z-score of log IC50": 0.38}
{"Molecule": "FPASHMATY", "z-score of log IC50": 0.38}
{"Molecule": "DIKLIDIAL", "z-score of log IC50": 0.38}
{"Molecule": "AKATGRYNL", "z-score of log IC50": 0.38}
{"Molecule": "AVDADDSHF", "z-score of log IC50": 0.38}
{"data": "Further values, each from its own experiment", "concentration": "10 µM"}
{"Compound": "NCCc1ccccn1", "target or system": "Sarcocystis neurona", "assay": "parasite growth", "conditions": "secondary screen", "endpoint": "inhibition", "result": "-11.7%"}
{"Compound": "COC1(C[S+]([O-])c2ccccc2)CCN(CCc2c[nH]c3ccc(F)cc23)CC1 (stereo not shown)", "target or system": "mouse MPNST tumor cells", "assay": "high-content immunofluorescence imaging, measured: nuclear SOX9", "conditions": "12 h, mean of 2 replicates", "how to read": "baseline: DMSO control, higher = more nuclear SOX9", "endpoint": "nuclear SOX9 intensity", "result": "110 % of DMSO"}
{"Compound": "O=c1c2ccccc2[se]n1-c1ccccc1", "target or system": "Sarcocystis neurona", "assay": "parasite growth", "conditions": "secondary screen", "endpoint": "inhibition", "result": "-38.2%"}
{"note": "Some of these lines once more (study 1):"}
{"Structure (SMILES)": "CN(C)C[C@H]1CCn2c(c(C3=C(c4cn(C)c5ccccc45)C(=O)NC3=O)c3ccccc32)C1", "remaining activity": "101%"}
{"Structure (SMILES)": "Cn1nc2c3c(cccc31)C(=O)c1ccccc1-2", "remaining activity": "86.7%"}
{"Structure (SMILES)": "COc1cc2ncnc(Nc3ccc(O)c(Br)c3)c2cc1OC", "remaining activity": "5.44%"}
